Assay results of several laboratories.
Protocols differ between the studies behind these lines. ± marks the error that the study gave.

N[C@@H](CC(=O)N1CCc2c(nc(C(F)(F)F)nc2C(F)(F)F)C1)CN1CC(F)(F)CCC1=O — AUC(0-inf) (healthy Korean adults, fasted, plasma; oral, 50 mg single dose, separate tablets, with: enavogliflozin 0.3 mg): 1390 ± 268 ng·h/mL
O=C(c1cccnc1-c1ccncc1)N1CCC(O)(Cc2ccccc2)CC1 — AUC(0-inf) (healthy Japanese adults, plasma; oral, 600 mg single dose): 3920 ng·h/mL
OC[C@H]1O[C@@H](c2cc(Cc3ccc(C4CC4)cc3)c(Cl)c3c2CCO3)[C@H](O)[C@@H](O)[C@@H]1O — AUC(0-inf) (healthy Korean adults, fasted, plasma; oral, 0.3 mg single dose, separate tablets, with: co-administered drug 50 mg): 36.1 ± 10.2 ng·h/mL
CC(C)c1nc(N(C)S(C)(=O)=O)nc(-c2ccc(F)cc2)c1/C=C/[C@@H](O)C[C@@H](O)CC(=O)O — AUC(0-inf) (healthy volunteers, plasma; oral, 10 mg, day 8, BCRP probe, with: momelotinib, days 4-8, 200 mg, once daily): 106 ng·h/mL
CS(=O)(=O)c1ccc([C@@H](O)[C@@H](CF)NC(=O)C(Cl)Cl)cc1 — AUC(0-inf) (Arbor Acres chickens, plasma; oral, 20 mg/kg, with: quercetin 40 mg/kg pretreatment): 45100 ± 1320 ng·h/mL
CCCCCCCCCCCCCCCC(=O)N[C@@H](CCC(=O)NCCCC[C@@H]1NC(=O)[C@H]([C@@H](C)CC)NC(=O)[C@@H](NC(=O)[C@@H]2CCCN2C(=O)[C@H](Cc2ccccc2)NC(=O)[C@H](Cc2c[nH]cn2)NC(=O)[C@@H](NC(=O)[C@H](CC(=O)O)NC(=O)CC(C)C)[C@@H](C)O)CSSC[C@@H](C(=O)N[C@@H](CCCCN)C(N)=O)NC(=O)CNC(=O)[C@H](CCCCN)NC(=O)[C@H](CO)NC(=O)[C@H](CCCNC(=N)N)NC(=O)[C@@H]2CCCN2C(=O)[C@H](CCC(=O)O)NC(=O)[C@H](Cc2ccccc2)NC1=O)C(=O)O — AUC(0-inf) (healthy volunteers, plasma; subcutaneous, 60 mg single, lyophilised formulation): 47000 ± 18200 ng·h/mL
CCCS(=O)(=O)N[C@H]1C[C@@H](N(C)c2ncnc3[nH]ccc23)C1 — AUC(0-inf) (healthy volunteers, plasma, total; oral, 200 mg single dose, alone): 3880 ng·h/mL
C=CC(=O)NC1CCN(c2ncc3ncnc(Nc4ccc(Oc5ccc6c(c5)ncn6C)c(C)c4)c3n2)CC1 — AUC(0-inf) (healthy male volunteers, plasma; oral, 60 mg, unlabelled tablet): 13.4 µM·h
Cc1c(C(=O)O)ccc2c3n(nc12)[C@@H]1[C@H](C3)N(CC2CC2)[C@@]2(C(=O)Nc3cc(Cl)ccc32)[C@H]1c1cccc(Cl)c1F — AUC(0-inf) (cancer patients, plasma; oral, 45 mg day 1 every 3 weeks, geometric mean, cycle 1): 173 µM·h
C[C@H]1CN(C(=O)CC#N)[C@]12CCN(c1ncnc3[nH]ccc13)C2 — AUC(0-inf) (healthy Japanese males, plasma; oral, 50 mg single dose): 1820 ng·h/mL
COc1cc(C(=O)NC2CCN(C)CC2)c(F)cc1Nc1ncc(C(F)(F)F)c(Oc2cccc3c2C(=O)N(C)C3)n1 — AUC(0-inf) (cancer patients, plasma; oral, 300 mg single dose, cycle 1 day 1, geometric mean): 86.2 µM·h
CC(=O)N[C@H]1CC[C@H](NC(=O)CN2CCN(c3nncc(-c4ccc(C)cc4)n3)CC2)CC1 — AUC(0-inf) (men aged 18-55 years, plasma; oral, 100 mg single dose, study): 5360 ng·h/mL
CCc1nc2c(C)cc(N3CCN(CC(=O)N4CC(O)C4)CC3)cn2c1N(C)c1nc(-c2ccc(F)cc2)c(C#N)s1 — AUC(0-inf) (healthy volunteers, fed, plasma; oral, 600 mg single dose, day 1, capsule): 49300 ng·h/mL
Oc1ccc([C@@H](O)c2cc(-c3ncnc4cc(N5CCOCC5)ccc34)c(F)cc2Cl)nn1 — AUC(0-inf) (geometric mean; healthy volunteers, plasma; oral, 100 mg, fasted tablet): 439 ng·h/mL
CCCCC[C@H](O)CC[C@@H]1[C@H]2Cc3cccc(OCC(=O)O)c3C[C@H]2C[C@H]1O — AUC(0-inf) (healthy Japanese adults, plasma; inhaled, 18 µg single dose, scaled by body weight/60 kg): 0.33 ± 0.07 ng·h/mL
CC[C@H](C)CCCCC(=O)N[C@@H](CCN)C(=O)N[C@H](C(=O)N[C@@H](CCN)C(=O)N[C@H]1CCNC(=O)[C@H]([C@@H](C)O)NC(=O)[C@H](CCN)NC(=O)[C@H](CCN)NC(=O)[C@H](CC(C)C)NC(=O)[C@@H](Cc2ccccc2)NC(=O)[C@H](CCN)NC1=O)[C@@H](C)O — AUC(0-inf) (ESKD on long-term intermittent haemodialysis, plasma; intravenous infusion, 0.75 mg/kg, geometric least squares mean): 31700 ng·h/mL
CCCCOCCOc1ccc(-c2ccc3c(c2)/C=C(/C(=O)Nc2ccc([S@@+]([O-])Cc4cncn4CCC)cc2)CCCN3CC(C)C)cc1 — AUC(0-inf) (mild hepatic impairment patients, plasma; oral, 150 mg, day 1, single dose, geometric mean): 5540 ng·h/mL
C[C@@H](N)C1CCN(S(=O)(=O)c2cccc3cnccc23)CC1 — AUC(0-inf) (healthy volunteers, fasted, plasma; oral, 25 mg): 3.81 ng·h/mL
Cn1cncc1[C@@](N)(c1ccc(Cl)cc1)c1ccc2c(c1)c(-c1cccc(Cl)c1)cc(=O)n2C — AUC(0-inf) (paediatric leukaemia patients; oral, 200 mg/m2, first dose, cycle 1, median): 4830 ng·h/mL

A few entries again:
C=CC(=O)NC1CCN(c2ncc3ncnc(Nc4ccc(Oc5ccc6c(c5)ncn6C)c(C)c4)c3n2)CC1 — AUC(0-inf) (healthy male volunteers, plasma; oral, 60 mg, unlabelled tablet): 13.4 µM·h
Cc1c(C(=O)O)ccc2c3n(nc12)[C@@H]1[C@H](C3)N(CC2CC2)[C@@]2(C(=O)Nc3cc(Cl)ccc32)[C@H]1c1cccc(Cl)c1F — AUC(0-inf) (cancer patients, plasma; oral, 45 mg day 1 every 3 weeks, geometric mean, cycle 1): 173 µM·h
